Measured values gathered from unrelated publications.
Protocols differ between the studies behind these lines. “And” joins repeats or separate records; there may be more than shown. Numbers after ± are the reported error.
TDO2: Tryptophan 2,3-dioxygenase (TDO2, Homo sapiens, UniProt P48775)
Trpv1: Transient receptor potential cation channel subfamily V member 1 (Trpv1, Rattus norvegicus, UniProt O35433)
FGFR1: Fibroblast growth factor receptor 1 (FGFR1, Homo sapiens, UniProt P11362)

Structure (SMILES)	target	test	system	setting	IC50
COC(=O)c1ccc(/C=C/C(=O)c2ccc(O)c(OC)c2)cc1	Protein disulfide-isomerase (P4HB, Homo sapiens, UniProt P07237)	enzyme activity, inhibitor	–	–	0.83 µM
Cc1ccc([C@H]2N[C@H](C(=O)O)Cc3c2[nH]c2ccccc32)c(C)c1	MEP cytidylyltransferase IspD (Plasmodium falciparum, UniProt Q8I273)	enzyme activity, inhibitor, fluorimetric pyrophosphate	–	60 nM enzyme	~1 µM
O=C(CN1CCOc2ccccc2C1)c1ccc2[nH]c(=O)[nH]c2c1	Single-stranded DNA cytosine deaminase (AICDA, Homo sapiens, UniProt Q9GZX7)	deaminase activity, inhibitor, alkaline cleavage	293T lysate, untagged	pH 7.2, 37 °C	130 µM
COc1ccc2c3c(c(Cc4cccc(Cl)c4)[nH]c13)CCNC2=O	cGMP-specific 3',5'-cyclic phosphodiesterase (PDE5A, Homo sapiens, UniProt O76074)	enzyme activity, inhibitor	–	–	0.346 µM
O=C(Cn1ccnc1)N[C@H]1C[C@@H]1c1ccc(OCc2ccccc2)cc1	Aromatase (CYP19A1, Homo sapiens, UniProt P11511)	enzyme activity, inhibitor, fluorescence	–	–	0.8 µM
O=C(O)c1cc(-c2ccccc2)nc(O)n1	TDO2	inhibitor	–	with: L-tryptophan 400 µM	~300 µM
C=CC(=O)N1CCc2ccc(-n3c(=O)ccc4cnc5ccc(-c6cnn(C)c6)cc5c43)cc21	Tyrosine-protein kinase Fer (FER, Homo sapiens, UniProt P16591)	enzyme activity, inhibitor	–	–	> 10 µM
N#CC(c1ccccc1)(c1ccccc1)c1ccccc1Cl	Gap junction alpha-8 protein (Gja8, Mus musculus, UniProt P28236)	gap junction current, inhibitor, dual whole-cell voltage clamp	transfected mouse N2a cell pairs	–	4 µM
O=C1Nc2ccc(Cl)cc2C1=Cc1ccc(-c2cccc(C(=O)NCC3CCNCC3)c2)o1 (mixture of isomers)	Serine/threonine-protein kinase pim-2 (PIM2, Homo sapiens, UniProt Q9P1W9)	enzyme activity, inhibitor	–	–	0.429 µM
O=C(NCCCCc1ccccc1)n1c(=O)oc2cc(-c3ccc(F)cc3)ccc21	Acid ceramidase (ASAH1, Homo sapiens, UniProt Q13510)	cellular enzyme activity, LC-MS	SW-403	3 h	0.825 µM
CC(C)(C)C(=O)Nc1ccc2[nH]c(CN3CCC(N(CCCN4CCOCC4)CC4OC(n5cnc6c(N)ncnc65)C(O)C4O)CC3)nc2c1 (stereo not drawn)	Histone-lysine N-methyltransferase, H3 lysine-79 specific (DOT1L, Homo sapiens, UniProt Q8TEK3)	enzyme activity, inhibitor, TR-FRET	–	–	2.08 µM
O=C(O)c1ccccc1NCc1ccccc1Cl	Transient receptor potential cation channel subfamily M member 4 (TRPM4, Homo sapiens, UniProt Q8TD43)	ion flux, inhibitor, fluorescence	–	–	8.3 µM
O[C@@H]1[C@@H](O)[C@@H]2O[C@@H]2[C@H](Cn2cc(CCCOCC34CC5CC(CC(C5)C3)C4)nn2)[C@H]1O	gba1 (Danio rerio, UniProt E7EZM1)	–	–	–	0.004 to 0.006 µM
CCc1nc2cc(C)c(Oc3ccc(OC(F)(F)F)cc3)cc2c(O)c1C	Cytochrome b (MT-CYB, Apis mellifera ligustica, UniProt P34845)	succinate-cytochrome c oxidoreductase activity, inhibitor	Apis mellifera, mitochondria	4 min preincubation, 30 °C	0.298 µM
O=C(CS(=O)(=O)c1cccs1)C12CC3CC(CC(C3)C1)C2	11-beta-hydroxysteroid dehydrogenase 1 (HSD11B1, Homo sapiens, UniProt P28845)	enzyme activity in cells, inhibitor	–	–	0.667 µM
N[C@@H](CC#CCN1CCCC1)C(=O)O	collagenase	gelatin hydrolysis, inhibitor	–	–	1520 µM
CCCN(CC(=O)N(CCC)CC(=O)N(CC(N)=O)Cc1cn(CCCNC(=O)CCCOc2cccc(-c3nc4ccc(-c5nc6ccc(N7CCN(C)CC7)cc6[nH]5)cc4[nH]3)c2)nn1)C(=O)CNCc1cn(CCCNC(=O)CCCOc2cccc(-c3nc4ccc(-c5nc6ccc(N7CCN(C)CC7)cc6[nH]5)cc4[nH]3)c2)nn1	MBNL1–r(CUG)109 complex	MBNL1 displacement	–	with: bulk yeast tRNA competitor	22 ± 5 µM
N#Cc1cnc(Nc2nc3ccccc3o2)nc1-c1ccc(OC(F)(F)F)cc1	Metabotropic glutamate receptor 5 (Grm5, Rattus norvegicus, UniProt P31424)	calcium signal, antagonist	–	–	> 30 µM
O=C(CSc1ccc(Cl)cc1)Nc1ccc2scnc2c1	Trpv1	ion current, antagonist, two-electrode voltage clamp	–	oocytes	27.3 µM
NC(Cc1cn(CCc2ccccc2F)nn1)c1ccccc1 (stereo not drawn)	Endothiapepsin (EAPA, Cryphonectria parasitica, UniProt P11838)	enzyme activity, inhibitor, fluorescence	–	–	94 µM

Structure (SMILES)	target	test	system	setting	IC50
C[C@@H](O)[C@H](NC(=O)CC(=O)NC[C@H]1O[C@@H](n2cnc3c(N)ncnc32)[C@H](O)[C@@H]1O)C(=O)O	tsaD/tsaC, with TsaB and TsaE (Escherichia coli, UniProt P05852+P45748)	inhibitor, HPLC	–	pH 7.5, 23 °C, preincubation 1 min, with: ATP 1 mM and L-threonine	> 1000 µM
CN(C(=O)c1ccn2ncc(-c3ccc(C(N)=O)cc3)c2c1)c1ccc(C#N)cn1	Tyrosine-protein kinase SYK (SYK, Homo sapiens, UniProt P43405)	enzyme activity, inhibitor	–	–	> 10 µM
N=C(N)SCc1ccc(Cl)cc1	TDO2	–	–	with: L-tryptophan 2 mM	> 30 µM
NCc1cccc(C2CCN(C(=O)c3cccc(NC(=O)C(=O)C4(O)CCC4)c3)CC2)c1	Tryptase beta-1 (Homo sapiens, UniProt Q15661)	enzyme activity, inhibitor	–	tryptase 100 pM, with: AMC substrate	0.0422 µM
NC(=S)Nc1ccccc1[N+](=O)[O-]	Urea transporter 1 (Slc14a1, Rattus norvegicus, UniProt P97689)	urea transport, inhibitor	rat erythrocytes	15 min	4800 ± 1300 µM
COC(=O)[C@H]1C[C@H](OCCCl)[C@@H](O[C@H]2O[C@H](CO)[C@@H](O)[C@H](O)[C@@H]2n2cc(CO)nn2)C[C@@H]1C(=O)OC	CD209 antigen (CD209, Homo sapiens, UniProt Q9NNX6)	cell-free assay, SPR	–	–	339 µM
C#Cc1cccc(Nc2ncnc3cc(OC)c(OCCCN4CCOCC4)cc23)c1	Receptor tyrosine-protein kinase erbB-4 (ERBB4, Homo sapiens, UniProt Q15303)	kinase activity, inhibitor	–	with: ATP 80.8 µM	0.012 µM and 0.011 µM
CC(C)CCC[C@@H](C)[C@H]1CC[C@H]2[C@@H]3CC=C4C[C@@H](OS(=O)(=O)O)CC[C@]4(C)[C@H]3CC[C@]12C	Plasminogen (PLG, Homo sapiens, UniProt P00747)	enzyme activity, inhibitor, absorbance	–	pH 7.4	84.9 µM
O=C(NO)c1cccc(C(=O)NCCc2ccccc2)c1	HDAC (Lucilia cuprina egg nuclear extract)	enzyme activity, inhibitor, fluorometric	–	–	> 100 µM
COc1ccc2cc(C(=O)NCCCN3CCC(Cc4ccccc4)CC3)ccc2c1	Sodium-dependent serotonin transporter (SLC6A4, Homo sapiens, UniProt P31645)	transporter uptake	–	–	0.23 to 0.45 µM
Cc1cc2c(NC(=O)N[C@@H]3CC(C)(C)Oc4c(OC(F)(F)F)cccc43)cccc2cn1	Trpv1	calcium signal, antagonist, fluorescence	–	–	0.429 µM
O=C(O)[C@]1(O)C[C@H](CP(=O)(O)O)[C@@H](O)[C@H](O)C1	3-dehydroquinate synthase, chloroplastic (DHQS, Arabidopsis thaliana, UniProt Q8VYV7)	enzyme activity, inhibitor, malachite green phosphate release	–	29 °C	0.0005 µM
CO[C@H]1O[C@H](CNC(=O)/C=C/c2ccc3c(c2)OCO3)[C@@H](O)[C@H](O)[C@@H]1O	Fucose-binding lectin PA-IIL (lecB, Pseudomonas aeruginosa, UniProt Q9HYN5)	ligand displacement, FP	–	–	29 µM
O=C(O)[C@@H]1[C@@H](OCCNC(=O)C(F)(F)F)[C@H](O)[C@@H](O)[C@@H]2O[C@@H]21	Heparanase (HPSE, Homo sapiens, UniProt Q9Y251)	enzyme activity, inhibitor	–	pH 5, with preincubation	1.5 µM
O=C(Nc1ccc(C(=O)Nc2ccc(C(=O)Nc3ccc(S(=O)(=O)O)c4cc(S(=O)(=O)O)cc(S(=O)(=O)O)c34)cc2)cc1)Nc1ccc(C(=O)Nc2ccc(C(=O)Nc3ccc(S(=O)(=O)O)c4cc(S(=O)(=O)O)cc(S(=O)(=O)O)c34)cc2)cc1	Coagulation factor XIII A chain (F13A1, Homo sapiens, UniProt P00488)	enzyme activity, inhibitor, fluorescence	–	pH 7.4	~84 µM
COc1cc2nccc(Oc3ccc(NC(=S)NC4CC4)c(Cl)c3)c2cc1C(=O)NC1CC1	FGFR1	–	–	–	6.8 µM
CC1OC(Oc2c(-c3ccc(O)cc3)oc3cc(O)cc(O)c3c2=O)C(OC(=O)C=Cc2ccc(O)cc2)C(O)C1OC(=O)C=Cc1ccc(O)cc1 (stereo not drawn)	C-X-C chemokine receptor type 3 (CXCR3, Homo sapiens, UniProt P49682)	calcium flux, antagonist	293FT GCaMP6 transfected	–	~10 µM
COc1cc2nccc(Oc3ccc(NC(=S)NCC4CC4)c(Cl)c3)c2cc1C(N)=O	FGFR1	–	–	–	0.406 µM
COC(=O)N1CCC(CN2CCC(CNC(=O)c3cccc4[nH]c(C(C)C)nc34)CC2)CC1	Multidrug and toxin extrusion protein 1 (SLC47A1, Homo sapiens, UniProt Q96FL8)	transporter uptake, inhibitor	–	–	0.988 µM
